Published values pooled from the literature.
± gives the spread as reported.

C=C1C[C@@H]2[C@H](CC[C@]3(C)C(=O)CC[C@@H]23)[C@@]2(C)C=CC(=O)C=C12  median plasma concentration (LC-MS/MS; postmenopausal breast cancer women, plasma; oral, 25 mg/day, 2 h, AKR7A2 A142T heterozygous): 8 ng/mL
Cc1ncc(OC[C@@]2(c3cccc(F)c3)C[C@H]2C(=O)Nc2ccc(F)cn2)c(C)n1  treatment-related adverse events (healthy human; 10 mg, with: fluconazole): 21.4%
N[C@]1(c2ccccc2Cl)CCC[C@H](O)C1=O  dose-normalized Cmax (male CD-1 mice, plasma; intraperitoneal, 5 mg/kg): 663 ± 36.4 ng/mL per mg/kg
CNC(C)Cc1ccc2c(c1)OCO2 (racemic)  change in heart rate (human; oral, 1.5 mg/kg, mean over session, unit not given; relative to: pre-dose baseline): 16
N[C@@]1(c2ccccc2Cl)C[C@@H](O)CCC1=O  dose-normalized Cmax (female CD-1 mice, plasma; intraperitoneal, 5 mg/kg): 406 ± 25.9 ng/mL per mg/kg
CN1CC[C@@]23CCCC[C@@H]2[C@@H]1Cc1ccc(O)cc13  MRT(0-inf) (Wistar rat, both sexes, plasma; oral, 5 mg/kg DEM, DEM 2 h after pretreatment, with: TCE 100 mg/kg single pretreatment): 8.01 ± 3 h
Cc1ncc2n1-c1ccc(Cl)cc1C(c1ccccc1F)=NC2  terminal half-life (human CYP3A5*3/*3 non-expressers, serum; geometric mean, with: ketoconazole 200 mg): 6.51 h
CCCCCCCCCCC(=O)O[C@H]1CC[C@H]2[C@@H]3CCC4=CC(=O)CC[C@]4(C)[C@H]3CC[C@]12C  testosterone change (human blood, NaF/EDTA tubes; 600 ng/mL, 30 min; relative to: no compound added): 16.5%
COc1ccc2c(c1)[C@]13CCCC[C@@H]1[C@H](C2)N(C)CC3  CL/F (Wistar rat, both sexes, plasma; oral, 5 mg/kg, 2 h after pretreatment, with: single quinidine 2.5 mg/kg): 667 mL/min/kg
N[C@@]1(c2ccccc2Cl)CC[C@@H](O)CC1=O  dose-normalized Cmax (male CD-1 mice, plasma; intraperitoneal, 5 mg/kg): 155 ± 12.6 ng/mL per mg/kg
C[C@H]1CNCCc2ccc(Cl)cc21  plasma concentration (Sprague-Dawley rat, male, plasma; subcutaneous, 1 mg/kg, 240 min): 3.86 ± 0.39 ng/mL

Excerpt of the above:
CN1CC[C@@]23CCCC[C@@H]2[C@@H]1Cc1ccc(O)cc13  MRT(0-inf) (Wistar rat, both sexes, plasma; oral, 5 mg/kg DEM, DEM 2 h after pretreatment, with: TCE 100 mg/kg single pretreatment): 8.01 ± 3 h
